# Results gathered from unrelated publications.
# Each line is one published result; not all experiments were run side by side. “And” joins repeats or separate records; there may be more than shown.
# Organism: Staphylococcus aureus
SMILES,assay,test system,setting,how to read,measurement,value
CC(C)C[C@H](NC(=O)CNC(=O)CNC(=O)CNC(=O)[C@H](Cc1ccc(O)cc1)NC(=O)[C@H](CC(C)C)NC(=O)[C@@H](NC(=O)CNC(=O)[C@H](Cc1ccc(O)cc1)NC(=O)[C@H](CCCCN)NC(=O)[C@H](CC(N)=O)NC(=O)[C@@H](NC(=O)[C@H](CCCCN)NC(=O)[C@H](Cc1c[nH]c2ccccc12)NC(=O)CN)[C@@H](C)O)[C@@H](C)O)C(=O)N[C@@H](CCCCN)C(=O)N[C@@H](CCCCN)C(=O)N[C@@H](CC(C)C)C(=O)N[C@@H](CC(C)C)C(=O)N[C@@H](CC(C)C)C(=O)N[C@@H](CC(C)C)C(=O)N[C@@H](CC(C)C)C(=O)N[C@@H](CCCCN)C(=O)N[C@@H](CCCCN)C(=O)N[C@@H](CC(C)C)C(=O)NCC(=O)O,,USA300,added: 150 mM NaCl,,MIC,32 mg/L
CC[C@H](C)[C@H](NC(=O)[C@H](CCCCN)NC(=O)[C@H](CCCCN)NC(=O)[C@H](Cc1ccccc1)NC(=O)[C@@H](NC(=O)[C@@H](NC(=O)[C@H](CCCNC(=N)N)NC(=O)[C@H](Cc1ccccc1)NC(=O)[C@@H](NC(=O)[C@H](CCCCN)NC(=O)[C@H](CCCCN)NC(=O)[C@@H](N)CCSC)[C@@H](C)CC)C(C)C)[C@@H](C)CC)C(=O)N[C@@H](CC(C)C)C(=O)N[C@@H](CCCCN)C(=O)N[C@@H](CCCNC(=N)N)C(=O)N[C@@H](CC(C)C)C(=O)N[C@H](C(=O)N[C@H](C(=O)O)C(C)C)[C@@H](C)CC,broth microdilution,MRSA GU-1,16 to 18 h,,MIC,4 mg/L
Cc1c2c(nn1C)CSCc1cc(n(C)n1)CSc1cc(c3ccccc3c1)OCCCc1c(C(=O)O)n(C)c3c-2c(Cl)ccc13,"label-free quantitative proteomics, item: SAOUHSC_00659 protein",SA113,concentration not given,baseline: untreated control,log2 fold change,3.96
C=CC[C@@H]1c2ccc(OC)c(OC)c2CN2CCc3cc4c(cc3[C@H]12)OCO4,,"P2rx7 A312V/A312V mice, skin wound infection","dose not given, day 4",baseline: day 0,relative wound size,0.99 and 0.74 and 0.69 and 0.85 and 1.27
OB(O)c1csc2ccccc12,OD600,USA300 fphE::Tn transposon mutant,10 µM,baseline: wild type,growth,75.8% and 59.7% and 69.7% and 81.3% and 54% and 52%
CO/N=C(\C(=O)N[C@@H]1C(=O)N2C(C(=O)O)=C(CSC(=O)c3ccco3)CS[C@H]12)c1csc(N)n1,,"CAAS-2019-CAAS-2019-17 clinical blaZ-resistant isolate, 25% plasma",,,MBC,16 mg/L
CC[C@H](C)[C@H](NC(=O)[C@H](C)NC(=O)[C@H](CCCCN)NC(=O)[C@H](CC(C)C)NC(=O)[C@H](C)NC(=O)[C@@H](NC(=O)[C@H](Cc1c[nH]cn1)NC(=O)[C@H](CC(C)C)NC(=O)[C@@H](NC(=O)[C@@H](NC(=O)[C@H](CCCCN)NC(=O)[C@H](C)NC(=O)[C@H](C)NC(=O)[C@H](CO)NC(=O)[C@H](CCCCN)NC(=O)[C@H](Cc1ccccc1)NC(=O)[C@@H](NC(=O)[C@H](CCCCN)NC(=O)[C@H](CC(C)C)NC(=O)[C@H](Cc1ccccc1)NC(=O)[C@H](CO)NC(=O)[C@H](CCCCN)NC(=O)[C@H](Cc1c[nH]c2ccccc12)NC(=O)[C@H](CCCCN)NC(C)=O)[C@@H](C)O)[C@@H](C)O)C(C)C)[C@@H](C)O)C(=O)N[C@@H](CO)C(=O)N[C@@H](CO)C(N)=O,,ATCC 29213,,,MIC50,8 mg/L
CC(=O)NC[C@H]1CN(c2ccc(N3CCOCC3)c(F)c2)C(=O)O1,,MRSA strain 6,,,MIC,0.5 mg/L
